Earlier results as cited in several papers.
Lines come from different studies, so protocols differ. ± marks the error that the study gave. ≈ marks a conversion by molar mass, not a printed value.

With N#C/C=C/c1ccc2c(S(=O)(=O)n3nc(Nc4ccc(C#N)c(Cl)c4)nc3N)cccc2c1 the IC50 was 0.26 ± 0.05 nM (HIV; wild type).
Under viral replication, CCCCN1C(=O)C(CC(C)C)NC(=O)C12CCN(Cc1ccc(Oc3ccccc3)cc1)CC2.Cl (stereo not drawn) is recorded as “inhibited” (HIV-1; infectivity and replication; laboratory, clinical, drug-resistant strains).
For O=P1(N(CCCl)CCCl)NC(SCCS(=O)(=O)O)CCO1 (stereo not drawn), the resistance was over 35 fold (MCF7/CAT cells; catechol-induced ALDH3A1; relative to: MCF7 cells).
For NC(=O)N1c2ccccc2C=Cc2ccccc21, the ED50 was 45 mg/kg (convulsive seizures; rat lithium-pilocarpine status epilepticus; 0 min after SE onset).
The IC50 of Nc1ccccc1O is reported as 370 nM (heterotrophic aerobic bacteria; mixed culture).
The potency ratio of CCN1CC(n2nccc2-c2cc(C(F)(F)F)ccc2Oc2ccc(S(=O)(=O)Nc3ncns3)cc2C#N)C1 is reported as about 1000 fold (Nav1.7; relative to: inactivated state over closed state).
With CCCN(CCC)c1c(C#N)cc(S(=O)(=O)Nc2ccccc2)cc1C#N the IC50 was 6600 ± 700 nM (tubulin Leishmania tarentolae; tubulin assembly, inhibitor).
With O=C1CN=C(c2ccccc2Cl)c2cc([N+](=O)[O-])ccc2N1 the ED50 was 1.3 mg/kg (convulsive seizures; rat lithium-pilocarpine status epilepticus; 0 min after SE onset).
For COc1ccc(OC[C@H]2c3cccn3CC(=O)N2Cc2cccc(F)c2)cc1, the aqueous solubility was 74 µM (≈ 28.2 µg/mL).
CC(C)[C@@H]1CC[C@@H](C)C[C@H]1NC(=O)c1ccc(-c2ccccc2)cc1 gave an IC50 of 20 ± 2 nM (rat TRPM8; calcium flux, antagonist; together with: menthol 20 µM).
For CCCC(CCC)C(=O)O, the ED50 was 366 mg/kg (convulsive seizures; rat lithium-pilocarpine status epilepticus; 0 min after SE onset).
With C=CC(=O)N1C[C@H](c2ccc(Br)cc2)[C@@H]1C(=O)Nc1cccc2cccnc12 the target engagement was over 90% (22Rv1; activity-based protein profiling, refers to: cysteine 271; 20 µM, 3 h; relative to: DMSO).

A few entries again:
Under viral replication, CCCCN1C(=O)C(CC(C)C)NC(=O)C12CCN(Cc1ccc(Oc3ccccc3)cc1)CC2.Cl (stereo not drawn) is recorded as “inhibited” (HIV-1; infectivity and replication; laboratory, clinical, drug-resistant strains).
